# Measurements of several laboratories.
# Parts stem from different laboratories: compare values within a part only.

# Series 1
# Target: Histone acetyltransferase KAT6A, both winged helices, GST fusion (KAT6A, Homo sapiens, UniProt Q92794, residues 1-181)
# Technique: protein binding microarray
# Form: double-stranded DNA, one strand shown
# Medium: in vitro
# Concentration: not given
# Setting: 8-mer, flanks averaged, mean of 2 arrays, mostly near background
# Reference: not given
# Reading: higher = stronger binding
# Construct (chain): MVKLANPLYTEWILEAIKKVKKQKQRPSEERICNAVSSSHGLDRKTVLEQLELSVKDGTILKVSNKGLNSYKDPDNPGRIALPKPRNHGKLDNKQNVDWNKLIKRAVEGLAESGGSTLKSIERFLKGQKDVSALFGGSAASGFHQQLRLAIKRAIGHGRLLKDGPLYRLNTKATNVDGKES
Sequence,E-score
CTAGACCC,-0.0654
CGGAATAG,0.224
ATCGTAAT,0.0476
ACCCCCTA,-0.361
ATTGATGC,0.0673
GAGTTGTA,-0.0917
GCCACGGA,0.191
ACTAACCC,-0.189
CTCTTCCA,-0.072
CCTTGCTC,-0.104
CACTAAAC,0.062
CATTCAAG,-0.0627
CCCTTATC,-0.149
GTCTCTGA,-0.0611
CAGGTCGC,0.0377
CAGGCCCA,-0.176
AGGCAAGG,-0.244
CGGACATC,0.195
ATAGATAG,-0.0915

# Series 2
# Target: RNA binding protein fox-1 homolog 2, RRM domain, GST-SBP tag (RBFOX2, Homo sapiens, UniProt O43251-10, residues 100-194)
# Technique: RNA Bind-n-Seq
# Form: RNA
# Medium: in vitro
# Concentration: 365 nM
# Setting: natural RNA segment, single round, ends assumed
# Reference: no-protein control
# Reading: higher = stronger binding
# Residues (chain): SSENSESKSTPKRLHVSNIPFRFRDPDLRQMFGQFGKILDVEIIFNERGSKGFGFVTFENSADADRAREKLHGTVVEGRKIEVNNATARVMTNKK
Sequence,RBNS enrichment (R)
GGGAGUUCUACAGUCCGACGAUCCCUUAUAAAGAAUGCCAAUUAAGUUUUAUUACCUGUCAUCAAUUUAUCCUAGUAUCUCAGUGUUCAUUCUUCUUGCCUUCAUAUUUUUUUCAAAGAAACAGCUGUGCUAAUGGAAUUCUCGGGUGCCAA,0.632
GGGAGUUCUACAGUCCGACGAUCUUAAAUUUCAUUGUUUAAUGAAAGGGCAAGUCAAAUGCUUGCCCCAAAUUUAAUACAUGUGAUUUGUGAUAUGUAGCUAAACUUAAUCCAGCUAAUGAAUAUUCUUCAUCUGGAAUUCUCGGGUGCCAA,0.307
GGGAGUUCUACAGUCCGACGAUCCCAUUCUACUCCCAGUCCGGAAUGCCACGAGGACCUUAACCUUGUUUCUGGCUUUAGCUGCUAGUUUUCCCAAAUCUCAGUGCUUUCCCUUUUUGAACUUCCCUUCUAUUUGGAAUUCUCGGGUGCCAA,1.05
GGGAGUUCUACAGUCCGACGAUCGUUGUUUUUUUUUUCAGUUAUUUCUUCAAGGGAAACUAAAUGAUUUAGUUGGAGCAAAGCUUUAAGUGUGUUGGCGUGCUUCUGUGUGGCUGUCCUGUGUCGCCAGGUCGUGGAAUUCUCGGGUGCCAA,1.53
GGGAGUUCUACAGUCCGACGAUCAAACCCAUGUCUGCUUUCAGACAUCCCAGGGUGUUUCUCUCGAACAUGCCAUCUGGUGCCAAAUGAAAAUUCUUAGGAGUGAAUAUUAAUCAUGAAGGUCACAGUUGUGGUGGAAUUCUCGGGUGCCAA,0.273
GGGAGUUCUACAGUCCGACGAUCUUAUAGACCAACAGAAGAUUCCAAAGAAUUUUCAUGAGAUCAGCUAAGUUGCACCAACUUUGAAGUCUGAUUUUCCUGGACAGUUUUCUGCUUUAAUUUCAUGAAAAGAUUGGAAUUCUCGGGUGCCAA,0.392
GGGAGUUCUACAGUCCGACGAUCCUAUCUUCUCACCACUGGCUUGAGGUAGUGAUUUGGACUUUGCUCAUUAGAGAGCAUUAUCAGAGAUGUGGAGUCCAUCAGAAGACCAGCUUGCAGUGUGUAUAGCAUAUUGGAAUUCUCGGGUGCCAA,0.78
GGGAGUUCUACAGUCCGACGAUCUUGCUGUAGGCCACAUGCUGAAGGCAAGCCAACCCGAGGACGAGGACAGUCCCUGGAUCCUACACAGCUAAUCCAAGCCAAUAAAGGGCUCUCACAAGUGGUUGUUCCUCUGGAAUUCUCGGGUGCCAA,0.182
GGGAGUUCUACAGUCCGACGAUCACGGGCCCAAUAUUUUACUAACCCACUCUGUAGGUUGUCAGUGUUCCAUUUUGAAAGUGUCCCCGUGGUUGCACACUUCAGAGGACAGGGACUCUGUGUGUCUAAGAAGGUGGAAUUCUCGGGUGCCAA,0.932
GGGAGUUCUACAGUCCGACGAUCAAACUGUGGACGUCAGGAGGCCGAAUGCAGAAAAGUAUAUCUGGGAUGGAUGGCAGGGAAUAGAAGCUAGGACUGGAGUUCCUGUCCUGCCGCCUUGGUUCCUGCAGUGCUGGAAUUCUCGGGUGCCAA,0.729
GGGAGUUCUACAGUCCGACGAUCGCGCCUCAGCAGCACCCACCCCAGAGCCUCUUGGCAUGCCCAGCUUUCUUUUCAGUACAAGUAUUUGUAGUUUGUAAUGAAUGUGCCACAUACAGGUUUUGUAGCUUAUUUGGAAUUCUCGGGUGCCAA,1.11
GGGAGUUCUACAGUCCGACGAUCUUCAUUGAGUGAAAUAUUUUAAGCCAAAAAAAAAUUCCCUUUUUAAAAAAGGGGGUUUAAAUACUGUUGGCAUUUUUAUGGUUCCUUUAAAUGCCCUAGCUAUUCCCAGAUGGAAUUCUCGGGUGCCAA,0.661

# Series 3
# Target: Sal-like protein 4, full length isoform B (SALL4, Homo sapiens, UniProt Q9UJQ4-2, residues 1-616)
# Technique: universal PBM
# Form: double-stranded DNA, one strand shown
# Medium: in vitro
# Concentration: not given
# Setting: 8-mer, flanks averaged, mean of replicates
# Reading: higher = stronger binding
# Residues (chain): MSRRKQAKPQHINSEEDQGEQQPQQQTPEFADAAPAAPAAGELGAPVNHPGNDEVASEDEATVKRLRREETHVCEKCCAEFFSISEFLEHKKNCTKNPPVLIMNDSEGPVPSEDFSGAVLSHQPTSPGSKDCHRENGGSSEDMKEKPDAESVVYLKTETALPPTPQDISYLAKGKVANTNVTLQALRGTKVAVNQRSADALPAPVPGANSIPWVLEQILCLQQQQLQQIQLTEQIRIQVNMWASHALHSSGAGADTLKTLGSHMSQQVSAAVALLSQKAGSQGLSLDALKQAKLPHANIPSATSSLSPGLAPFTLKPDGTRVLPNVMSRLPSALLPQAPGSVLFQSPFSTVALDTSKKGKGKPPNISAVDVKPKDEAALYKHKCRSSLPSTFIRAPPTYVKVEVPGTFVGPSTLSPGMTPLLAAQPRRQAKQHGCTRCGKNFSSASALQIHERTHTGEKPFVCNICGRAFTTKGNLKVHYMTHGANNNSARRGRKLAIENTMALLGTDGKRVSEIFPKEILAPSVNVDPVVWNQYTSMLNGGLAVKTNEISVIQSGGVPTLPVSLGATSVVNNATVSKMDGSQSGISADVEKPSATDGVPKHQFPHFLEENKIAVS
Sequence,E-score
TCCCGGGA,-0.265
CATCGGCC,-0.315
CAGTTCAC,0.0348
CTATGTAC,0.188
TCTACACA,0.0374
GGTTCCAA,-0.138
CACTCAGA,0.0143
AAGCCTGA,-0.0256
AGTAAGAG,0.0157
CATGCAAG,0.0386
CGGCGTGC,-0.257
CGGTGAGA,-0.139
GGATATCC,0.118
AATAACCT,0.287
ACGGACAG,-0.128
AAACTCGC,-0.0906
AAAAGTTT,0.164
ACTACCCG,-0.254
ACCTAGCT,-0.14
CCAGGTCC,-0.314
CTTTTTTC,0.108
GAGTATGA,0.158
GCAGACTA,-0.0694
CCGAGGGC,-0.317

# Series 4
# Target: RING finger protein unkempt homolog, zinc fingers 1-6, SBP tag (UNK, Homo sapiens, UniProt Q9C0B0, residues 30-357)
# Chain of UniProt Q9C0B0 (30-357, looked up): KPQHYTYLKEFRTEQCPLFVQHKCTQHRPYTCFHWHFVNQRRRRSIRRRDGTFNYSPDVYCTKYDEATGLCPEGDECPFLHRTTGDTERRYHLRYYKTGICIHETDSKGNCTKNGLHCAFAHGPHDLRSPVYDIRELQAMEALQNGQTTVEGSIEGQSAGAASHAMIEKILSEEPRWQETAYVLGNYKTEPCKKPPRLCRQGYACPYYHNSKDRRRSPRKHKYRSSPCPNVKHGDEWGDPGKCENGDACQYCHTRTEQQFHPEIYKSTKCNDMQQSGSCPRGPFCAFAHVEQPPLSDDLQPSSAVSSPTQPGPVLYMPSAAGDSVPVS
# Technique: RNA Bind-n-Seq
# Form: RNA
# Medium: in vitro
# Concentration: 100 nM
# Setting: RNA with constant flanks, vertebrate orthologous sites, ends assumed
# Reference: input RNA pool
# Reading: higher = stronger binding
Sequence,bound/input enrichment [ratio]
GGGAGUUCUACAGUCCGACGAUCUUCACCACUCUUGGGUGCGUGAUUGAGGGUGAAGCAUCCACCAGCACUUCAAGGGGUCCAUAGUAUUUUUUCUUGCUGCCUCAAAGUUCCCAAAGCCUUCGAGCAGAAGUAGCAGUAGAUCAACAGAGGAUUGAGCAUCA,0.995
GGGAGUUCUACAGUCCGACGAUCAAAUAUACUUCAUGCCAUGGACUCCGUAUCGCACGGAUACUUUGAUAGAAUAUGCUUCUUUAGAGGACUUCCAGAACGGACGCCAGCAGACAACGUACAAACUCCCAAACCGAGUGGAUGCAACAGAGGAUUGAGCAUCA,0.495
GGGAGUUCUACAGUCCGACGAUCCAGCCGAUUCUCUCAUAGGGAGAGCUGCACACAUUGCUGUUCUUGAUUCAGAAAUAUUUUUAGAAAAGUUCUUUCUGGUUGCUGCCCUAAAAUAUUUCCAGUAGAAGAAAAGCAUUUUAACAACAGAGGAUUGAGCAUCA,0.568
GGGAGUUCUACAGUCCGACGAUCGGAUAUGGCCUUGGAGGAAUCUCUGCCUUGGCCUUGCCUCCCCUCCUUGCCACCAGCCCCUAGGUAUUUUUUUUUAACCACCACUUGAUUCUGGUCGGCACUUCCACCCCCGACCUUUUCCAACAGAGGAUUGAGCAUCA,1.23
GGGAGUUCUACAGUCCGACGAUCCCGUUCUGUGAAACAUGUCUACCCAGAAAUGUAGCAUUCUAUAAAUGCUAUUAAACAACUUAGCUAUAUUAUUUUUAAGUAUUAAAUUAUAUGUCAAGCAGUUAAAGUGAAUUUCAGAGUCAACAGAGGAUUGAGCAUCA,0.926
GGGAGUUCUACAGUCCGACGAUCGUGACUUUGGACGUCCGCUCCCCCUCAGUGUGGAGGCUGUUUAGUCUCGGGCCUUGCAGGUUUAUUUUACUCUCCUUGACUCGAGGCUUCUGUUUCACCAUGUUCCGCCAUAUCGUCGGUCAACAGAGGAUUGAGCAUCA,0.49
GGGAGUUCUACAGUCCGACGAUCGGUUGAUGUUUUGAAGAAUCACUUAGUGAAAGAAGGUCGGGUAGAUGAAGAAAUUGCACUUAGAAUUAUCAAUGAGGGUGCUGCCAUCCUUCGGAGGGAGAAAACCAUGAUAGAAGUAGACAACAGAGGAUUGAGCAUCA,0.813
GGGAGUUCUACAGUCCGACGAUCACAUGCCACUGUCACCAAAACAAACAACUACCACUUUCCAAAUUUCAUUCAGAACCAUUUUAGUGUUUUCCUAUUCCCUACCCCUCCCACUACUUUCAAUGAUGAAAUACCCUAAGUUAACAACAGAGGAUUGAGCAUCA,6.94
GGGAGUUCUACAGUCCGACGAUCUUUAAUUAUGAAAAUAUAAAGGAUUUUUAAUGUUUAAUUUCCCCUGGCAUAUUAAGACAUCUUUUUUUCCAGGCAGAUCACUCAGUGUGUGAGUGUGUGUACACAUGUUACAAAGACAACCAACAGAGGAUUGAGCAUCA,0.0618
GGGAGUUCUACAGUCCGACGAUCGACGUAUUUAUACUGGCCAAACAUUUUUGACUUGUAUUUCUUUGUCCUUUUUUGGUAGUUCUCGUUGUUACCCGCACCAUUUUUAUGUCUCCUUCACUGAAGGGCUAGAGUUUUAACUUUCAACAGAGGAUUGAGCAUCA,0.434
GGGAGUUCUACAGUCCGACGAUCGGCAUCUGGUGACAUUUGGCCUGGUCUUUCAGCAUAUGAUAAUAGUCCAAGAUCACCUCACAGCCCUUCUCCUGUUGCUACACCACCUAGUCAGAGUUCAUCUUGUUCUGAUGCUCCCAUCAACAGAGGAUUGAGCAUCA,0.461

# Excerpt of the above (series 3):
Sequence,E-score
GGTTCCAA,-0.138
CACTCAGA,0.0143
AAGCCTGA,-0.0256
AGTAAGAG,0.0157
CATGCAAG,0.0386
CGGCGTGC,-0.257
CGGTGAGA,-0.139
